Assay results from different studies.
Each line is one published result; not all experiments were run side by side.
UniProt Q9Y2K6, sequence (whole entry, looked up): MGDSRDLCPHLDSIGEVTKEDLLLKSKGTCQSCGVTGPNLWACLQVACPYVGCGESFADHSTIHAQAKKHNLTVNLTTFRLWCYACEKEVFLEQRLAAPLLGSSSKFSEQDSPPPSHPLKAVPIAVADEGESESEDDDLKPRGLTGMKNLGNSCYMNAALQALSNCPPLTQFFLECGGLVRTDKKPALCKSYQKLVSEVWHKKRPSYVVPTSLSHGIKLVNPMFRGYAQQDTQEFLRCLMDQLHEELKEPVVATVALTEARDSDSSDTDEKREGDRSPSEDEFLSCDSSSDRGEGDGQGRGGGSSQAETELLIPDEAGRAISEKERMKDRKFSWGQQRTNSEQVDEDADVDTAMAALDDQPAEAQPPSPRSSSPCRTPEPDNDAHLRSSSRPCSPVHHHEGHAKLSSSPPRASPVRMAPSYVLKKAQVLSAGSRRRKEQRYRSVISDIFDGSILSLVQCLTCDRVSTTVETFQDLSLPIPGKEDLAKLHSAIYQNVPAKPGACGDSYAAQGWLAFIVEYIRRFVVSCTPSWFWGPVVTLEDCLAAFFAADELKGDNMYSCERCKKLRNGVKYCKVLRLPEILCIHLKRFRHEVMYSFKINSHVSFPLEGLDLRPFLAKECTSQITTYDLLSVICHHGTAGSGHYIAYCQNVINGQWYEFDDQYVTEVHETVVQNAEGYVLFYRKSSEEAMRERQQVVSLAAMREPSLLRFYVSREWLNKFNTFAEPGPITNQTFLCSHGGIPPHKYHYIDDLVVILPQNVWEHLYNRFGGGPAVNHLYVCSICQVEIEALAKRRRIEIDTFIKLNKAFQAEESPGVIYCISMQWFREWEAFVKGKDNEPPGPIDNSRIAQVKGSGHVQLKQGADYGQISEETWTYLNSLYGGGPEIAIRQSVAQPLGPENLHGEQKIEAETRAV
UniProt Q53GS9, sequence (whole entry, looked up): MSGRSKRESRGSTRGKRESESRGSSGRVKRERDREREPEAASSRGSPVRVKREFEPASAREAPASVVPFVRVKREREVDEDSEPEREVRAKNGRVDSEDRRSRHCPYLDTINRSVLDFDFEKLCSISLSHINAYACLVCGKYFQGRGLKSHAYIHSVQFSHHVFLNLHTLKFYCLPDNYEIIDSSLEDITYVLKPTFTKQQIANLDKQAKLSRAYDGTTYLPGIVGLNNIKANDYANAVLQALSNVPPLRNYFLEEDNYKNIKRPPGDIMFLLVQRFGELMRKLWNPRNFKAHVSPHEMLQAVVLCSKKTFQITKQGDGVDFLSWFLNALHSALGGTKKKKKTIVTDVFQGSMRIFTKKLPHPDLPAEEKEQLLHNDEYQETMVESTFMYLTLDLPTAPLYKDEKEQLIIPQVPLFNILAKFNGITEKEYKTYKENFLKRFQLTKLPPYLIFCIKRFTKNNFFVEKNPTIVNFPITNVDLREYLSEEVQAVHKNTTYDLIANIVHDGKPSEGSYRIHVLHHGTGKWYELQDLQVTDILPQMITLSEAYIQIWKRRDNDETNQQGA

For `O=C(O)CC[C@@H](O)C(=O)O`, “z-scored log2 fold change” read 0.267 (binding, equilibrium dialysis LC-MS; 5 µM, thermostabilized A2AR-BRIL construct; reference: no-protein control, direction not given).
For `COc1cc2c(N3CCN(C(=O)Nc4ccc(OC(C)C)cc4)CC3)ncnc2cc1OCCCN1CCCCC1`, the beat rate was 92.9% (iCell Cardiomyocytes (hiPSC-derived); xCELLigence Cardio impedance; concentration not given, 2 h; reference: control).
`CC#CC(=O)N1CCC[C@H]1c1nc(-c2ccc(C(=O)Nc3ccccn3)cc2)c2c(N)nccn12` gave an inhibition of -26.2% (NLRP3 inflammasome (mouse); mouse BMDM; 10 µM).
`CN(C)C[C@@H]1CCn2cc(c3ccccc32)C2=C(C(=O)NC2=O)c2cn(c3ccccc23)CCO1` has a beat amplitude of 95.4% (iCell Cardiomyocytes (hiPSC-derived); xCELLigence Cardio impedance; concentration not given, 2 h; reference: control).
For `NS(=O)(=O)c1ccc(NCC(=O)O)cc1`, the Kd was > 1000 µM (Ubiquitin carboxyl-terminal hydrolase 39, ZnF-UBD domain (Homo sapiens, UniProt Q53GS9)).
`CCc1cc2c(cc1N1CCC(N3CCOCC3)CC1)C(C)(C)c1[nH]c3cc(C#N)ccc3c1C2=O` gave an inhibition of 43.8% (NLRP3 inflammasome (mouse); mouse BMDM; 10 µM).
With `O=C(O)CCC(=O)c1cccs1` the Kd was 272 µM (Ubiquitin carboxyl-terminal hydrolase 20, ZnF-UBD domain (USP20, Homo sapiens, UniProt Q9Y2K6)).
`O=P(O)(O)OC[C@H](O)CO`: “z-scored log2 fold change” 0.304 (binding, equilibrium dialysis LC-MS; 5 µM, thermostabilized A2AR-BRIL construct; reference: no-protein control, direction not given).
`c1cn2cc(-c3ccc4cn[nH]c4c3)nc(Nc3ccc(N4CCOCC4)cc3)c2n1` has an inhibition of 4% (NLRP3 inflammasome (mouse); mouse BMDM; 10 µM).
`O=c1[nH]c(=O)c2ncn([C@@H]3O[C@H](COP(=O)(O)O)[C@@H](O)[C@H]3O)c2[nH]1`: “z-scored log2 fold change” 0.186 (binding, equilibrium dialysis LC-MS; 5 µM, thermostabilized A2AR-BRIL construct; reference: no-protein control, direction not given).
With `O=C(NC[C@H](O)CO)c1ccncc1Nc1ccc(I)cc1F` the inhibition was 0.774% (NLRP3 inflammasome (mouse); mouse BMDM; 10 µM).
`COc1cc(N2CCC(N3CCN(C)CC3)CC2)ccc1Nc1ncc(Cl)c(Nc2ccccc2S(=O)(=O)C(C)C)n1` has a beat rate of 76.7% (iCell Cardiomyocytes (hiPSC-derived); xCELLigence Cardio impedance; concentration not given, 2 h; reference: control).
Under “z-scored log2 fold change”, `Cc1ncc(C[n+]2csc(CCO[P@](=O)(O)OP(=O)(O)O)c2C)c(N)n1` is recorded as -0.128 (binding, equilibrium dialysis LC-MS; 5 µM, thermostabilized A2AR-BRIL construct; reference: no-protein control, direction not given).
`CC#CC(=O)N1CC[C@@H](n2c(=O)n(-c3ccc(Oc4ccccc4)cc3)c3c(N)ncnc32)C1` has an inhibition of 47.3% (NLRP3 inflammasome (mouse); mouse BMDM; 10 µM).
`CC(=O)NCCCCN` — result for “z-scored log2 fold change”: 0.291 (binding, equilibrium dialysis LC-MS; 5 µM, thermostabilized A2AR-BRIL construct; reference: no-protein control, direction not given).
For `COc1cc(Nc2ncc3c(n2)-c2ccc(Cl)cc2C(c2c(F)cccc2OC)=NC3)ccc1C(=O)O`, the inhibition was 57.4% (NLRP3 inflammasome (mouse); mouse BMDM; 10 µM).
`COc1ccc2[nH]cc(CCNC(C)=O)c2c1`: “z-scored log2 fold change” 0.544 (binding, equilibrium dialysis LC-MS; 5 µM, thermostabilized A2AR-BRIL construct; reference: no-protein control, direction not given).
For `C=CC(=O)Nc1cccc(Nc2nc(Nc3ccc(OCCOC)cc3)ncc2F)c1`, the inhibition was 36.8% (NLRP3 inflammasome (mouse); mouse BMDM; 10 µM).
With `Cc1ccc(F)c(NC(=O)Nc2ccc(-c3cccc4[nH]nc(N)c34)cc2)c1` the cell index was 100% (iCell Cardiomyocytes (hiPSC-derived); cellular impedance; concentration not given, 24 h; reference: control).
For `CC(=O)O[C@H](CC(=O)[O-])C[N+](C)(C)C`, “z-scored log2 fold change” read 0.112 (binding, equilibrium dialysis LC-MS; 5 µM, thermostabilized A2AR-BRIL construct; reference: no-protein control, direction not given).
With `Cc1[nH]c(/C=C2\C(=O)Nc3ccc(S(=O)(=O)Cc4c(Cl)cccc4Cl)cc32)c(C)c1C(=O)N1CCC[C@@H]1CN1CCCC1` the beat rate was 70.5% (iCell Cardiomyocytes (hiPSC-derived); xCELLigence Cardio impedance; concentration not given, 2 h; reference: control).
`Cn1cc(-c2ccc(-c3cncc(Cl)c3N3CCC4(CCNC4=O)CC3)cc2)cn1` — result for “log2 fold change”: -2.54 (COLO 205; gene expression, microarray, measured: CCL20 mRNA; concentration not given, 2 h; reference: untreated cells).
`C[C@@H](O)C=O` — result for “z-scored log2 fold change”: 0.513 (binding, equilibrium dialysis LC-MS; 5 µM, thermostabilized A2AR-BRIL construct; reference: no-protein control, direction not given).
For `OCCn1cc(-c2ccc3c(c2)CC/C3=N\O)c(-c2ccncc2)n1`, the beat rate was 119% (iCell Cardiomyocytes (hiPSC-derived); xCELLigence Cardio impedance; concentration not given, 2 h; reference: control).
`OC(CCN1CCCCC1)(c1ccccc1)C1CC2C=CC1C2` (stereo not drawn): “power, Delta EEG, Pz-O1” 8.2 µV² (resting-state EEG; healthy elderly humans; oral, 2 mg, eyes closed, LS mean).
The inhibition of `Cc1c(CN2CCN(C(=O)[C@H](C)O)CC2)sc2c(N3CCOCC3)nc(-c3cnc(N)nc3)nc12` is reported as 0.13% (NLRP3 inflammasome (mouse); mouse BMDM; 10 µM).
For `O=C(NOCC1CC1)c1ccc(F)c(F)c1Nc1ccc(I)cc1Cl`, the cell index was 103% (iCell Cardiomyocytes (hiPSC-derived); cellular impedance; concentration not given, 24 h; reference: control).

A few entries again:
Under “z-scored log2 fold change”, `Cc1ncc(C[n+]2csc(CCO[P@](=O)(O)OP(=O)(O)O)c2C)c(N)n1` is recorded as -0.128 (binding, equilibrium dialysis LC-MS; 5 µM, thermostabilized A2AR-BRIL construct; reference: no-protein control, direction not given).
`CC#CC(=O)N1CC[C@@H](n2c(=O)n(-c3ccc(Oc4ccccc4)cc3)c3c(N)ncnc32)C1` has an inhibition of 47.3% (NLRP3 inflammasome (mouse); mouse BMDM; 10 µM).
`CC(=O)NCCCCN` — result for “z-scored log2 fold change”: 0.291 (binding, equilibrium dialysis LC-MS; 5 µM, thermostabilized A2AR-BRIL construct; reference: no-protein control, direction not given).
For `COc1cc(Nc2ncc3c(n2)-c2ccc(Cl)cc2C(c2c(F)cccc2OC)=NC3)ccc1C(=O)O`, the inhibition was 57.4% (NLRP3 inflammasome (mouse); mouse BMDM; 10 µM).
